Published values of several laboratories.
A part holds a random share of what one study measured.

Block 1
Target: RING finger protein unkempt homolog, zinc fingers 1-6, SBP tag (UNK, Homo sapiens, UniProt Q9C0B0, residues 30-357)
Chain of UniProt Q9C0B0 (30-357, looked up): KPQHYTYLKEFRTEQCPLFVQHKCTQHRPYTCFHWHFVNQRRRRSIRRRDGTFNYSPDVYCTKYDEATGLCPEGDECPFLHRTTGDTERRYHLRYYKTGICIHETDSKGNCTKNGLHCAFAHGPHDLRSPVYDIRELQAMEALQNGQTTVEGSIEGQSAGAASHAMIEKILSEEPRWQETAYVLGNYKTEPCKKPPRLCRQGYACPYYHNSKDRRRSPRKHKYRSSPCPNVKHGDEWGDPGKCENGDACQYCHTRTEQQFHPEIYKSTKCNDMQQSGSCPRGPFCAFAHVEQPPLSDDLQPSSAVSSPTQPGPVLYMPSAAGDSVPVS
Technique: RNA Bind-n-Seq
Form: RNA
Matrix: in vitro
Concentration: 100 nM
Setting: RNA with constant flanks, vertebrate orthologous sites, ends assumed
Relative to: input RNA pool
Direction: higher = stronger binding
All sequences stand within: GGGAGUUCUACAGUCCGACGAUC … CAACAGAGGAUUGAGCAUCA
`GGUUGAUGUUCUGAAGAACCACUUGGUGAAAGAAGGUCGAGUAGAUGAAGAAAUUGCGCUUAGAAUUAUCAAUGAGGGUGCUGCCAUCCUUCGGAGAGAGAAAACCAUGAUAGAAGUAGA` has a bound/input enrichment of 0.546 ratio.
For `AAAUCUACUUCAUGCCUUGGACUCCGUACCGAACAGACACUCUAAUCGAGUACUCCUCCUUGGACGACUUUCAAAAUGCCCGUCAAACCAUCACCUACAAGCUGCCGCACCGGGUGGAUG`, the bound/input enrichment was 0.368 ratio.
`ACUUAAAAUGUACUUAGUUAUAGUUAAUGACCGCAUUCCUGAGUUCCUUUUUCAUUAAUGUAGAUUUCCAUUCCUAUUAUUGCACUUUUAAUAAUAUGAAUAAAUAGAAGGUUUGUGCCA` gave a bound/input enrichment of 0.739 ratio.
`AGGAAAAAAAAAUCAGUAGAAUUCAUACUAAAGUUGAAAGGAUAUCCAAGUAUGUGUUGGUAGUUACUGAAAGAAUUAUAGCUGUUAUUGCCUUGUAUUUAUACCCUUGUUUCAGGUCUC` has a bound/input enrichment of 0.964 ratio.
For `ACGUAUUUAUACUGGCCAAACAUUUUUGACUUUGUAUUUCUUUGUCCUUUUUUGGUAGUUCUUGUUGUUACCCGCACCAUUUUUAUGUCUCCUUCACUGAAGGGCUAGAGUUUUAACUUU`, the bound/input enrichment was 0.661 ratio.
The bound/input enrichment of `GAGCUAAAGGAGUUAGCAUCUUUAUUUUUGUAUCAAAGAUAAAGGUUAUUUUGAAAUUAUUAGGGUUUUUACACAAUUCUGAAAUCUGUUGCUUUUGUAAACAAAUUGUUUGAUCUUAGU` is reported as 1.09 ratio.
The bound/input enrichment of `CUGAAGCUUUGUGUUUGGCUGCACCUGCAUAAGCUGCUACAAAUAGAAUAAAGAAUUUCAUAGCCUGUAUCUAUCGUUUAGAUGCAUGGAAAAAUGGGCUUUGCACACAAUGGGUUUGGA` is reported as 2.57 ratio.
The bound/input enrichment of `UCAUAAUCACUAAUUGUAUUCUGAAUAAAGUGUAACAUUGUGUAGCCUUUUUGUAUAAAAUAGAGAAAUAGAAAUGGUCCAAUUAGUUUCCUUUUUAAUAUGCUUAAAAUAAGCAGGUGG` is reported as 1.72 ratio.
`GGACUCUCCAUGGGGGCGGGGGCCCCGGCCCUGCCCCGGGACCCCCUGGUCAGGCCAUUUUAGCUCUACUCAUUUUUUUAACCAGUGUCCUUACCCUGUACAUACGCUUGAGAUUUGGAA` has a bound/input enrichment of 1.93 ratio.
`GCAUGUCCUGUUACUGUGGUAUUUUAAAUAUCCACAGUACUCACUUUUUCCAAACGAUCCUAGUAAUUGCCUAGAAAUAUCUUUCUCUUACCUGUUAUUUAUCAAUUUUUCCCAGUAUUU` gave a bound/input enrichment of 2.03 ratio.
With `UAUUCAUUUGAUUAAAAUGAUUUAGGUAAGAAACUAUUACUGUUUAUGUUUGCUUUCAGUUUGUCUUAUUUUUCAUUCAUUUUGCAAAUAUCAGUUGAAUGUGGUUUUUUAACAGAAUAG` the bound/input enrichment was 0.319 ratio.

Block 2
Target: Interferon regulatory factor 5, full length, phosphomimetic (IRF5, Homo sapiens, UniProt Q13568-2, residues 1-514, S451D/S453D/S456D/S462D)
Technique: protein-binding microarray
Form: double-stranded DNA, one strand shown
Matrix: in vitro
Concentration: 940 nM top
Setting: 60-bp whole probe
With: salmon DNA 0.4 mg/ml
Relative to: random background probes
Direction: higher = stronger binding
All sequences stand within: GCCTAGCAC … GTCTTGATTCGCTTGACGCTGCTG
Under “fitted relative affinity”, `GACGATCTCAGTCTCGGGACGTGCTAG` is recorded as 0.971 z-score.
`TTAGACATCGGGACTGGATTAGTGCTA`: “fitted relative affinity” -0.324 z-score.
For `TCAAGCATGGATCTGGGACTGTGCTAG`, “fitted relative affinity” read -0.829 z-score.
For `CACGATTTCAGTCTCGAGACGTGCTAG`, “fitted relative affinity” read 2.07 z-score.
`GTAGGACTGGGGTTTCGGTTAGTGCTA`: “fitted relative affinity” 5.38 z-score.
For `TCAAACTTAGTTTTCAAACTGTGCTAG`, “fitted relative affinity” read -0.144 z-score.
`TTAGATTTCAATTCCGATTAGTGCTAG` — result for “fitted relative affinity”: 0.54 z-score.
Under “fitted relative affinity”, `TCAAGACTTGATTTTGGACTGTGCTAG` is recorded as -0.654 z-score.
For `TTAGGACTTGGTATCGGTTAGTGCTAG`, “fitted relative affinity” read 6.75 z-score.
For `TGAGGACTGGGGTTTCGGTTAGTGCTA`, “fitted relative affinity” read 6.04 z-score.
Under “fitted relative affinity”, `TTAGGAATGCTTCTCCTTTAGTGCTAG` is recorded as -0.0198 z-score.
Under “fitted relative affinity”, `TTAGATTTCGGGTTTTGATTAGTGCTA` is recorded as 1.53 z-score.
`TTAGGTATCCTACTGCATTAGTGCTAG` — result for “fitted relative affinity”: -0.1 z-score.
`TCATTTCTCAACCATTTTACTGTGCTA`: “fitted relative affinity” 1.61 z-score.
Under “fitted relative affinity”, `TCAGTTTTACTTTCTATACTGTGCTAG` is recorded as 2.93 z-score.
`ATAGGTTTCCTTCTCCTTTAGTGCTAG`: “fitted relative affinity” 1.87 z-score.
For `GACGGTTTGCTTCTCCTGACGTGCTAG`, “fitted relative affinity” read 0.439 z-score.
For `GACGGTTTGCTTATCCTGACGTGCTAG`, “fitted relative affinity” read 0.0142 z-score.
`ATTTTTCTAATTTACTTTGGGTGCTAG` — result for “fitted relative affinity”: 0.566 z-score.
`GACGATTCCTGTTTCGAGACGTGCTAG`: “fitted relative affinity” 1.95 z-score.
For `TTAGATTTCCTTATCCTTTAGTGCTAG`, “fitted relative affinity” read 0.719 z-score.
`GACGAACTGAGTTACGAGACGTGCTAG` — result for “fitted relative affinity”: -0.534 z-score.
`TTAGATTACGGGTTTCGATTAGTGCTA` — result for “fitted relative affinity”: 5.39 z-score.
`TTAGCTTTCCTTATCCTTTAGTGCTAG` — result for “fitted relative affinity”: 1.3 z-score.

Block 3
Target: Histone acetyltransferase KAT6A, winged helix 1, GST fusion (KAT6A, Homo sapiens, UniProt Q92794, residues 1-85)
Technique: protein binding microarray
Form: double-stranded DNA, one strand shown
Matrix: in vitro
Concentration: not given
Setting: 8-mer, flanks averaged, mean of 2 arrays, mostly near background
Relative to: not given
Direction: higher = stronger binding
Target sequence (chain): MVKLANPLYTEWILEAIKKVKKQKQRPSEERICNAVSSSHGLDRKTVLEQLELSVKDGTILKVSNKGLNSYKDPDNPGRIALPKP
For `TAGTTGGA`, the E-score was -0.144.
`AGCAAGTA` gave an E-score of -0.0671.
The E-score of `ATGTTCTA` is reported as -0.0963.
The E-score of `ATGCAATG` is reported as -0.0685.
With `AAGACTAC` the E-score was -0.0684.
The E-score of `CTGTAGTC` is reported as 0.0119.
`CGCCGGTC` gave an E-score of 0.429.
`CTCTCTGA` has an E-score of -0.19.
`TTTATAAA` gave an E-score of 0.143.
The E-score of `GATTCTCA` is reported as 0.00787.
`ACAAACAC` gave an E-score of -0.0495.
`GAGGAGGA` has an E-score of -0.185.
`ACCGAGCC` has an E-score of 0.0934.
With `ACGGGCAA` the E-score was 0.254.
`AGTAAATA` gave an E-score of -0.103.
`GTTGTACA` gave an E-score of 0.00726.
For `CGGGTTAC`, the E-score was 0.313.
For `CTCTTCAG`, the E-score was -0.105.
For `CTCTCGGC`, the E-score was 0.167.
`GAGTAGGC` gave an E-score of -0.111.
The E-score of `CACTGGGC` is reported as -0.0935.

Block 4
Target: RNA binding protein fox-1 homolog 2, RRM domain, GST-SBP tag (RBFOX2, Homo sapiens, UniProt O43251-10, residues 100-194)
Technique: RNA Bind-n-Seq
Form: RNA
Matrix: in vitro
Concentration: 365 nM
Setting: natural RNA segment, single round, ends assumed
Relative to: no-protein control
Direction: higher = stronger binding
All sequences stand within: GGGAGUUCUACAGUCCGACGAUC … UGGAAUUCUCGGGUGCCAA
Construct (chain): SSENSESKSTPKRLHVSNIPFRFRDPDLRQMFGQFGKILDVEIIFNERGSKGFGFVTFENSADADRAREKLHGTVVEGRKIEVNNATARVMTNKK
Under “RBNS enrichment (R)”, `UGUCUAACAGUUUAAUUGCUCCAGAGCUUUAUAGGUAUUUAAAGACUGAUUAGUAAAUAAAAUUGCCUAUGGCAGGACUUUCUUAAAUUAAUCCUACUCCUUAAAGUGAU` is recorded as 0.35.
`GCCAAGGACUUCAAAGCUUGUUGAUCACUGCACUCUGGAUAAAACCCUUGGCUUCCUGUUCAAAUAGCCUUUCCAGGUUUAACUUCUUUAAGGAGCCUCAAGUGAAAAAA`: “RBNS enrichment (R)” 0.838.
`AUCACAAGACCUAGGGAGAGGAAGUCCCCAAAAUGCUUGGGACAUGACCCAUCCUGAGGCCAGAUACAUACUUUAAAAUUCAGAUAUUCACCGUAGCAGGUAGACAGAUG` — result for “RBNS enrichment (R)”: 0.42.
Under “RBNS enrichment (R)”, `AUUGUUUGCUUAAACUUUGAAGAAAUAUGUGCCUCAGCUUAGAUGUUUUGUCUUCCCCUUUCUGCACUUAAAUACCUGACAGCCUGUUCGAUCGCUGUGCCUCCGAGGGC` is recorded as 0.789.
Under “RBNS enrichment (R)”, `CCCUGCCACUGCCAGCUCUUAGUACAGUCCCAACUACCGUAGACCAGGUGACAUUUGUUGACACCAUUCUCAGAGGUGUUGAAGAUUUAUCAUCUUGAAUCCUCCACAAA` is recorded as 0.581.
Under “RBNS enrichment (R)”, `CCCUGCUUAGCAUGGUUGUGCUACCAUCCAGGAGAAUGUUGAUGGAACCAAAUUAAAUAUUUACUGUACGUUGUGGUGUUGUCUUCAUCUACAAGGAAUCUCAGUAGUUG` is recorded as 0.607.
`UCUCUCCCGACCCUGUUUGUGGUGUGUGCUGGCCUAUCAGGAUCUGGUUAGCCUUUGGAAUUUUUGUUGAUGAAAUCUCAAUACAUAAGGCGUCAACAGGGGGCUGGAGA`: “RBNS enrichment (R)” 0.362.
Under “RBNS enrichment (R)”, `GGGUAGACAGGGGCGACCUGUGAUUGUUGUUAUUGAUGUUGUUGUUGAUGGCAAAAAAAAAAAAGCGACUUCGAGUUUGCUCCCCUUUGCUUGAAGAGACCCCCUCCCCC` is recorded as 0.58.
`UCAACAGGGAAUAAACAGGCUCUAGCACAUUAAGGAUGUGGCCUAGGCUGAGUGUUACCUUAAAAUGCCUUGUGGUCUCCACCUCUAAAGCUAUAAAAGUGUCUUAGAGA` — result for “RBNS enrichment (R)”: 0.245.
Under “RBNS enrichment (R)”, `AAGAUUUGUAGUCUGGAAUCAUGUAGUCUCAUAUGCUGCACUUAUUUUUAUAUUUUUCAAUGCACUUAAUUAUUGUUUUUAUAUAAUUAUUUGUACUAACUCAGCAUGUA` is recorded as 1.46.
For `UUCAUGGUUCAUGUGAAACGUGAUAUCACUGGGCUGCCAAAGCACAAAUGAGUCAGUAUUCUUGGGCAGAAGUGAACAUCCCAAGGAUUCAACAGGGAAUAAACAGGCUC`, “RBNS enrichment (R)” read 0.4.
`CUGCUGCAGUUUUUUGACUCCUGUCUGGUGGAACAUCCUGGAUUUCUUGGAUUUUUAGGUGUAAUUUGCCAAGGUCUUGGAAUCUUUUUCCCAAGAGCAUGAUAGAAAGA`: “RBNS enrichment (R)” 3.03.

Some of these lines once more (block 2):
`TTAGATTTCAATTCCGATTAGTGCTAG` — result for “fitted relative affinity”: 0.54 z-score.
For `GACGGTTTGCTTCTCCTGACGTGCTAG`, “fitted relative affinity” read 0.439 z-score.
`TTAGATTACGGGTTTCGATTAGTGCTA` — result for “fitted relative affinity”: 5.39 z-score.
For `TCAAGCATGGATCTGGGACTGTGCTAG`, “fitted relative affinity” read -0.829 z-score.
`GACGATTCCTGTTTCGAGACGTGCTAG`: “fitted relative affinity” 1.95 z-score.
